Experimental data pooled from the literature.
Numbers after ± are the reported error.
Isochorismatase domain-containing protein 1: Isochorismatase domain-containing protein 1 (Homo sapiens, UniProt Q96CN7)
Sequence of UniProt Q96CN7 (whole entry, looked up): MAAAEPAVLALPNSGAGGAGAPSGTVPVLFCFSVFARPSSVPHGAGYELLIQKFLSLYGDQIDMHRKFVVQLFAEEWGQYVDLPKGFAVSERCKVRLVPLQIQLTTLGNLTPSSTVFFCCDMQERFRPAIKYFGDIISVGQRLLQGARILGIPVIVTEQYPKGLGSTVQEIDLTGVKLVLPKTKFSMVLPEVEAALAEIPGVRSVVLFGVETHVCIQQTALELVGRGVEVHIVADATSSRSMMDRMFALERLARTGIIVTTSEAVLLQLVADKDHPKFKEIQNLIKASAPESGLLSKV
Sequence of UniProt Q15391 (whole entry, unmodified, looked up): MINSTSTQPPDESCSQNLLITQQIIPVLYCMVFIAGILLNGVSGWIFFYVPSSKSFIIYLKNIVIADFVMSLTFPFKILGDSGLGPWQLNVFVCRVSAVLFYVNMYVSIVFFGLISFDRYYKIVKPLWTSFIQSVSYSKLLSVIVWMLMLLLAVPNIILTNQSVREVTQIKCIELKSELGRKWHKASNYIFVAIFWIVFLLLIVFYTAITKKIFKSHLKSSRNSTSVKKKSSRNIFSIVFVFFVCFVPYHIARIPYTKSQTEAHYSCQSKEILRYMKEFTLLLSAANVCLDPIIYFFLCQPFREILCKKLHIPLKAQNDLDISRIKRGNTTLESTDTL
Sequence of UniProt O00154 (whole entry, looked up): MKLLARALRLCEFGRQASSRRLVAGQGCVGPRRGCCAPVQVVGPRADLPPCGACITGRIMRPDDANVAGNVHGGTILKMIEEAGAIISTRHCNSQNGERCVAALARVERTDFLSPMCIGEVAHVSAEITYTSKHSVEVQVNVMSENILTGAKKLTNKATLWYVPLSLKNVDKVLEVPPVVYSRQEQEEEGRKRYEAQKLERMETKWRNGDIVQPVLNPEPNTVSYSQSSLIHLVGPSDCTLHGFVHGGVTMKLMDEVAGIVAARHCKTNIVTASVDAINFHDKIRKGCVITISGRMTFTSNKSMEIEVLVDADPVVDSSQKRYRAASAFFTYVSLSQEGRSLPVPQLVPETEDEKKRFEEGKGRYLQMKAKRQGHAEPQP
Sequence of UniProt P80192 (whole entry, looked up): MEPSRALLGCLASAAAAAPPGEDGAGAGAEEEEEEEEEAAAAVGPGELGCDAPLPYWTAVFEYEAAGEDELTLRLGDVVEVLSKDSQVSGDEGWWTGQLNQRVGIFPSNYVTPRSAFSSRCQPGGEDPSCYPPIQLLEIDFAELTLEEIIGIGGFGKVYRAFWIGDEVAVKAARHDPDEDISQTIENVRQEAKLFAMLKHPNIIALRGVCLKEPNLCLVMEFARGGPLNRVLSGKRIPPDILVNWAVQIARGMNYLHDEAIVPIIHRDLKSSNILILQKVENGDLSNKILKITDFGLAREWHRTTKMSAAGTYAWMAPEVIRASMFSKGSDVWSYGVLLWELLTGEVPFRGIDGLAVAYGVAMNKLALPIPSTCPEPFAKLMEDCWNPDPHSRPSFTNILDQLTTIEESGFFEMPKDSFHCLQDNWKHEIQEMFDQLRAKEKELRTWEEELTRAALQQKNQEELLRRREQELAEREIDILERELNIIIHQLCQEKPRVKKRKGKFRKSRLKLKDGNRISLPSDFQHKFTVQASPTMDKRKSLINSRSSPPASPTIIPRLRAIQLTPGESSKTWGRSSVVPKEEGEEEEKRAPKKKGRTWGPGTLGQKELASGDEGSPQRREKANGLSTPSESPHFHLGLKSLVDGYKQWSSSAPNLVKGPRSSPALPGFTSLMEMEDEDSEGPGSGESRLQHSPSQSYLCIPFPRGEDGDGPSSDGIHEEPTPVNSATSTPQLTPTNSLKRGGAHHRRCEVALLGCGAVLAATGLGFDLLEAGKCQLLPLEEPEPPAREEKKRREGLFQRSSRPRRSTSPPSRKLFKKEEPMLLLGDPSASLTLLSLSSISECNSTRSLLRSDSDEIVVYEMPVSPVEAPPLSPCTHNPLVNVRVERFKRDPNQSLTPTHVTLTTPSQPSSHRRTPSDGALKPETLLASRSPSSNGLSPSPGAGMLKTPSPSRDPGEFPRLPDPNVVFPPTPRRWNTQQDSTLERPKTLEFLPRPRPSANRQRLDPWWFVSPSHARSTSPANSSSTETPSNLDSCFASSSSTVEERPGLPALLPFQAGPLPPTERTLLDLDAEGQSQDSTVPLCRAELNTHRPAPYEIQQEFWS
Sequence of UniProt Q92529 (whole entry, looked up): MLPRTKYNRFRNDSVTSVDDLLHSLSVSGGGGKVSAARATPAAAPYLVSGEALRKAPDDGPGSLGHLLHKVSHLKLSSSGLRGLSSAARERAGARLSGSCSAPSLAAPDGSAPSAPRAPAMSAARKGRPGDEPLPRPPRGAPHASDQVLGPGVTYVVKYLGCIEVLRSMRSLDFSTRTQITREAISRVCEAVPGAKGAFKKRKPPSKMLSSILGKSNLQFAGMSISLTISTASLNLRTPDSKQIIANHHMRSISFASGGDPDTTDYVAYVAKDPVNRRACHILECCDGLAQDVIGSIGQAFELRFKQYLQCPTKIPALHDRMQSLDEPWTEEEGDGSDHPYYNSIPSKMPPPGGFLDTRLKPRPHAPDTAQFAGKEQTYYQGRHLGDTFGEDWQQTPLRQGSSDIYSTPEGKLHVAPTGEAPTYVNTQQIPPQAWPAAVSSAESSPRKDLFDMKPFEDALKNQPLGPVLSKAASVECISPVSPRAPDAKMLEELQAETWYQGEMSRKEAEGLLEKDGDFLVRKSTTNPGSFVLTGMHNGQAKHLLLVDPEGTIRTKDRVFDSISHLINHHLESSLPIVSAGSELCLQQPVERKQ
Sequence of UniProt P28566 (whole entry, looked up): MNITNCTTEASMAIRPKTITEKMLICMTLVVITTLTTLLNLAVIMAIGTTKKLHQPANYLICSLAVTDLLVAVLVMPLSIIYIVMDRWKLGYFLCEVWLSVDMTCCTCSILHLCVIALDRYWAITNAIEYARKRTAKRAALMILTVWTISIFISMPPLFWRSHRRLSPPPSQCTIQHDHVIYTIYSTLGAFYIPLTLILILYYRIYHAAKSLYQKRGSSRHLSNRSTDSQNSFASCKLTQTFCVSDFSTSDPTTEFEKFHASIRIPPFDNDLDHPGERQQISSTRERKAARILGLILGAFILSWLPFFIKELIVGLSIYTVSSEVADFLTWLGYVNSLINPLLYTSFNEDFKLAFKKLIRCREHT
Sequence of UniProt P52003 (whole entry, looked up): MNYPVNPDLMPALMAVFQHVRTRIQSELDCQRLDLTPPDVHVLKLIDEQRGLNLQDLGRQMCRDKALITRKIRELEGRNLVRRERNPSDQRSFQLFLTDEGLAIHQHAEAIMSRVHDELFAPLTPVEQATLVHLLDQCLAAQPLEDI
Sequence of UniProt Q16774 (whole entry, unmodified, looked up): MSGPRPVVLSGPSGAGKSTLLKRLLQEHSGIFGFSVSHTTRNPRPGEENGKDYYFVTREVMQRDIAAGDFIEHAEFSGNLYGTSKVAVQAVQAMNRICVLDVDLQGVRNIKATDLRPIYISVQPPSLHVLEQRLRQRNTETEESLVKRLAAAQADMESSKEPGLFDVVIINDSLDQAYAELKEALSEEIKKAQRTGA
Sequence of UniProt P16442 (whole entry, unmodified, looked up): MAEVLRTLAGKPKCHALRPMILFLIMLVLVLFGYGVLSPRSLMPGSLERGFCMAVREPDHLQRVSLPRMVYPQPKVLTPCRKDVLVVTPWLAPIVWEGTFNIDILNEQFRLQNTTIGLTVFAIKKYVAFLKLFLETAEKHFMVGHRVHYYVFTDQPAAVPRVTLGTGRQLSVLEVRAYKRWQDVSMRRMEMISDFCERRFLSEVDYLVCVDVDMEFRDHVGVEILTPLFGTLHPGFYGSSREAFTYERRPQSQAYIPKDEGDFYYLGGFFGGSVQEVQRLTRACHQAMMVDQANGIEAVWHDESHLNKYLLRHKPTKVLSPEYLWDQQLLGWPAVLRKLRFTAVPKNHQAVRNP
Sequence of UniProt P31641 (whole entry, unmodified, looked up): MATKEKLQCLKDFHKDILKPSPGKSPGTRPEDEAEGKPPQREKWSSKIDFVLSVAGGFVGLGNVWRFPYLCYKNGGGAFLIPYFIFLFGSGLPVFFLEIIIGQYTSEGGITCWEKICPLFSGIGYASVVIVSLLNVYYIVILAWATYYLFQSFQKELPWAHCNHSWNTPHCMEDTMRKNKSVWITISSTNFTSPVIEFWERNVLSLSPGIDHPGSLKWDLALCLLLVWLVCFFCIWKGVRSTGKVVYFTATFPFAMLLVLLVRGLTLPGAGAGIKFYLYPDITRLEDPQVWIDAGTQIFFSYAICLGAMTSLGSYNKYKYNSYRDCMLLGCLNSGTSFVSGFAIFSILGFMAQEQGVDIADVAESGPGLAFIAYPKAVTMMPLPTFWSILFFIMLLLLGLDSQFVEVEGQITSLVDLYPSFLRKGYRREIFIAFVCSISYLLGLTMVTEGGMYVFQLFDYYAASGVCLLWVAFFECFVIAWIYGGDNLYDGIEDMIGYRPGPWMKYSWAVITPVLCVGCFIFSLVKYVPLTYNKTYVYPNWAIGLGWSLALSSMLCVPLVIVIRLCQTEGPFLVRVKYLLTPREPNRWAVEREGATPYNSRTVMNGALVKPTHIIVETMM
Sequence of UniProt O95747 (whole entry, looked up): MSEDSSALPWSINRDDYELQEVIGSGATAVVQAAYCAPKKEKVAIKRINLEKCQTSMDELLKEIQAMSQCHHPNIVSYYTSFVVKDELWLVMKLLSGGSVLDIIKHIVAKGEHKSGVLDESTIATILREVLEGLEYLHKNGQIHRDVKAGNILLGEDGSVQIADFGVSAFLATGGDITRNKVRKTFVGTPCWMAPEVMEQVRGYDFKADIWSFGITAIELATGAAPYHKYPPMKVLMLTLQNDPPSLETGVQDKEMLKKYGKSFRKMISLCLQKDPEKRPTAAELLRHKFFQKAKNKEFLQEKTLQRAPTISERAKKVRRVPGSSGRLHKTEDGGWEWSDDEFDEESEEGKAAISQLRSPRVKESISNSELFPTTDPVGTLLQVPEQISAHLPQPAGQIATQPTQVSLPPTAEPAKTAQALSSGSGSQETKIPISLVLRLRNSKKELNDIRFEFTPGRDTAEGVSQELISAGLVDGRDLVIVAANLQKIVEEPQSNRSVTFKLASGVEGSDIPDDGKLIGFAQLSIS

CC1(C)CC[C@]2(NC(=O)C(C)(F)F)CC[C@]3(C)[C@H](C(=O)C=C4[C@@]5(C)C=C(C#N)C(=O)C(C)(C)[C@@H]5CC[C@]43C)[C@@H]2C1  inhibition (THP-1; pyroptotic LDH release; 2 µM, 40 min, with: LPS then nigericin): 89.2%
COc1ccc(-c2nc(N3CCOCC3)c3sc(CN(C)c4ncc(C(=O)NO)cn4)cc3n2)cn1  Kd (Isochorismatase domain-containing protein 1; inhibitor, competition pulldown; SW620 and MV4-11 lysate; 1 h): > 30.2 µM
NCCCC(=O)O  Kd (SLC6A6 (Homo sapiens, UniProt P31641, Y138A); microscale thermophoresis; Y138A mutant): no binding
CC[C@@H]1[C@H](F)C(=O)N[C@@H]1COc1nccc2cc(C(N)=O)c(OC)cc12  IC50 (OXSR1 (Homo sapiens, UniProt O95747); ATP probe binding, KiNativ profiling, refers to: OSR1 Lys2 probe site; THP-1 cell lysate): > 5 µM
CC(C)(Oc1ccc(C(=O)c2ccc(Cl)cc2)cc1)C(=O)O  Kd (Fatty acid-binding protein, liver (Mus musculus, UniProt P12710); binding, native mass spectrometry; mouse liver tissue): 44 ± 5 µM
CC[C@H](C)[C@H](NC(=O)[C@H](CC(C)C)NC(=O)[C@H](Cc1ccc(OP(=O)(O)O)cc1)NC(=O)[C@H](CCC(=O)O)NC(=O)[C@H](CC(=O)O)NC(=O)[C@H](C)NC(=O)[C@H](CC(=O)O)NC(=O)[C@@H](NC(=O)[C@@H](NC(=O)[C@H](CC(=O)O)NC(=O)[C@H](CC(=O)O)NC(=O)[C@H](CCSC)NC(=O)c1ccc2c(c1)C(=O)OC21c2ccc(N(C)C)cc2Oc2cc(N(C)C)ccc21)C(C)C)C(C)C)C(=O)N1CCC[C@H]1C(=O)N[C@@H](CCC(N)=O)C(=O)N[C@@H](CCC(N)=O)C(=O)NCC(=O)N[C@@H](Cc1ccccc1)C(=O)N[C@@H](CC(=O)O)C(=O)O  Kd (SHC-transforming protein 3, SH2 domain (SHC3, Homo sapiens, UniProt Q92529); binding): 0.216 µM
Nc1nc2c(ncn2[C@@H]2O[C@H](COP(=O)(O)O)[C@@H](O)[C@H]2O)c(=O)[nH]1  Kd (GUK1 (Homo sapiens, UniProt Q16774, Y81A); binding, ITC; 25 °C, with: GMP): > 500 µM
Cc1cc(Nc2cc3ncccc3c(N[C@@H]3C[C@H]4CC[C@@H](C3)N4CCC#N)n2)n[nH]1  Kd (MAP3K9 (Homo sapiens, UniProt P80192); binding, KINOMEscan): 0.054 µM
COc1cc2c(c(O)c1OC)C(=O)c1c(cc(C)c(O[C@@H]3O[C@H](CO)[C@@H](O)[C@H](O)[C@H]3O)c1OC)C2=O  cell viability (HK-2 co-cultured with HepaRG; MTT; 16.67 µM, 24 h; relative to: untreated control): 85.2 ± 9.59%
Nc1cc(F)ccc1NC(=O)c1ccc(CNC(=O)/C=C/c2cccnc2)cc1  Kd (Isochorismatase domain-containing protein 1; inhibitor, competition pulldown; SW620 and MV4-11 lysate; 1 h): > 30.2 µM
O=C(Nc1cccc(Nc2ncc(Br)c(NCCc3cnc[nH]3)n2)c1)N1CCCC1  number of kinases inhibited (16-kinase panel; radiometric; 1 µM, ATP at Km; below 10% of control): 1
O=c1ccn([C@@H]2O[C@H](COP(=O)(O)OP(=O)(O)O)[C@@H](O)[C@H]2O)c(=O)[nH]1  Kd (ABO (Homo sapiens, UniProt P16442, G235S/G268A/L266M/R176G/W181E); methyl-TROSY NMR titration lineshape; mutant presaturated with H-disaccharide): 499 ± 4 µM
CO[C@@H]1[C@@H](OC(N)=O)[C@@H](O)[C@H](Oc2ccc3c(O)c(NC(=O)c4ccc(O)c(CC=C(C)C)c4)c(=O)oc3c2C)OC1(C)C  Kd (Multidrug resistance operon repressor (mexR, Pseudomonas aeruginosa, UniProt P52003); microscale thermophoresis): 56.7 µM
Cc1ccc(S(=O)(=O)Oc2ccc(/C=N/Nc3ccc(C(=O)O)cc3)cc2CN(C)N)cc1  Kd (HTR1E (Homo sapiens, UniProt P28566); dynamic mass redistribution; HEK293 expressing HTR1E): 0.00138 ± 0.0002 µM
CN(C)Cc1c(C(=O)NCCOc2ccc(C(=O)NO)cc2)oc2ccccc12  Kd (Isochorismatase domain-containing protein 1; inhibitor, competition pulldown; SW620 and MV4-11 lysate; 1 h): > 30.2 µM
Cc1nn(CC(F)(F)F)cc1Nc1ncc(Br)c(NCCc2cnc[nH]2)n1  number of kinases inhibited (16-kinase panel; radiometric; 1 µM, ATP at Km; below 10% of control): 0
O=C(CCCCCCNC(=O)c1cnc(N(c2ccccc2)c2ccccc2)nc1)NO  Kd (Isochorismatase domain-containing protein 1; inhibitor, competition pulldown; SW620 and MV4-11 lysate; 1 h): 1.04 µM
O=c1ccn([C@@H]2O[C@H](COP(=O)(O)OP(=O)(O)O[C@H]3O[C@H](CO)[C@@H](O)[C@H](O)[C@H]3O)[C@@H](O)[C@H]2O)c(=S)[nH]1  Ki (P2Y purinoceptor 14 (P2RY14, Homo sapiens, UniProt Q15391, K277A)): > 3 µM
COc1cc(O)c2c(c1)C(=O)c1cc(C)cc(O)c1C2=O  viability (HK-2 co-cultured with HepaRG; MTT; 16.67 µM, 24 h; relative to: untreated control): 110 ± 11.2%
CCCCCCCCCCCCCCCC(=O)OC[C@H](COP(=O)(O)O[C@@H]1[C@H](O)[C@H](O)[C@@H](OP(=O)(O)O)[C@H](OP(=O)(O)O)[C@H]1O)OC(=O)CCCCCCCCCCCCCCC  Kd (TUT1 (Homo sapiens, UniProt Q9H6E5); binding, microscale thermophoresis; lipid micelles, with: 5 nM labelled Star-PAP): 0.078 ± 0.024 µM
O=C(CCCCCN1C(=O)c2cccc3cccc(c23)C1=O)NO  Kd (Isochorismatase domain-containing protein 1; inhibitor, competition pulldown; SW620 and MV4-11 lysate; 1 h): 3.03 µM
CC(C)(COP(=O)(O)OP(=O)(O)OC[C@H]1O[C@@H](n2cnc3c(N)ncnc32)[C@H](O)[C@@H]1OP(=O)(O)O)[C@@H](O)C(=O)NCCC(=O)NCCS  Kd (Cytosolic acyl coenzyme A thioester hydrolase (Homo sapiens, UniProt O00154); competitor, competition MS pulldown; SW-620 cell lysate; with: photo-immobilized beads): 0.631 µM

Repeated from above:
Nc1nc2c(ncn2[C@@H]2O[C@H](COP(=O)(O)O)[C@@H](O)[C@H]2O)c(=O)[nH]1  Kd (GUK1 (Homo sapiens, UniProt Q16774, Y81A); binding, ITC; 25 °C, with: GMP): > 500 µM
Cc1ccc(S(=O)(=O)Oc2ccc(/C=N/Nc3ccc(C(=O)O)cc3)cc2CN(C)N)cc1  Kd (HTR1E (Homo sapiens, UniProt P28566); dynamic mass redistribution; HEK293 expressing HTR1E): 0.00138 ± 0.0002 µM
CC1(C)CC[C@]2(NC(=O)C(C)(F)F)CC[C@]3(C)[C@H](C(=O)C=C4[C@@]5(C)C=C(C#N)C(=O)C(C)(C)[C@@H]5CC[C@]43C)[C@@H]2C1  inhibition (THP-1; pyroptotic LDH release; 2 µM, 40 min, with: LPS then nigericin): 89.2%
